Experimental data from different studies.
Each line is one published result; not all experiments were run side by side. Several values in a cell are separate wells, animals, samples, runs or records.
Organism: Acinetobacter baumannii

Compound | assay | test system | conditions | how to read | measurement | value
NC[C@H]1O[C@H](O[C@H]2[C@H](O)[C@@H](O[C@H]3O[C@H](CO)[C@@H](O)[C@H](N)[C@H]3O)[C@H](N)C[C@@H]2N)[C@H](O)[C@@H](O)[C@@H]1O |  |  | concentration not given, 0.2 mg/mL |  | growth inhibition | 94%
Cc1c(CN(C)C(=O)/C=C/c2cnc3c(c2)CC(NC(=O)OC(C)(C)C)C(=O)N3)oc2ccccc12 (stereo not shown) | broth microdilution | AR-0311 |  |  | MIC | > 32 µg/mL
c1ccc(CSc2nc3ccc(-c4ccccc4)cc3cc2CNCc2ccc(CN3CCCC3)cc2)cc1 | NADH-driven proton pumping, ACMA quenching | inverted membrane vesicles | 2 µg/mL |  | inhibition | 22%
N=C(N)c1ccc(OCc2cc(COc3ccc(C(=N)N)cc3)cc(-c3ccccc3)c2)cc1 | checkerboard | ATCC 17978 | unit not given, added: rifampicin | lower = stronger synergy | FICI | ≤ 0.023
CN(C)[C@@H]1C(O)=C(C(N)=O)C(=O)[C@@]2(O)C(O)=C3C(=O)c4c(O)cccc4[C@@](C)(O)[C@H]3C[C@@H]12 | broth microdilution | NCTC 13424 |  | reference: 5% CO2 over ambient air | MIC fold shift | 0.5
Brc1ccc2nc(SCc3ccccc3)c(CNCCC3CCN(C4CCCC4)CC3)cc2c1 | NADH-driven proton pumping, ACMA quenching | inverted membrane vesicles | 2 µg/mL |  | inhibition | 8%
C[C@@H](O)[C@H]1C(=O)N2C(C(=O)O)=C(SCCN=CN)C[C@H]12 |  | 0403, female ICR mice, peritonitis, kidney | dose not given |  | bacterial load | 2.52 log CFU and 3.64 log CFU and 3.75 log CFU and 3.82 log CFU and 2.82 log CFU and 3.3 log CFU
N=C(N)c1ccc(OCc2ccc(Br)cc2COc2ccc(C(=N)N)cc2)cc1 |  | ATCC 17978 | concentration not given, added: rifampicin |  | MIC in combination | 6.25 µg/mL
c1ccc(CSc2nc3ccccc3cc2CNCc2ccc(CN3CCCC3)cc2)cc1 | NADH-driven proton pumping, ACMA quenching | inverted membrane vesicles | 2 µg/mL |  | inhibition | 20%
N=C(N)c1ccc(OCc2cc(Br)cc(COc3ccc(C(=N)N)cc3)c2)cc1 | checkerboard | ATCC 17978 | unit not given, added: rifampicin | lower = stronger synergy | FICI | ≤ 0.047
C[C@H]1COc2c(N3CCN(C)CC3)c(F)cc3c(=O)c(C(=O)O)cn1c23 | broth microdilution | NCTC 13424 |  | reference: 5% CO2 over ambient air | MIC fold shift | 1
CN1CCN(CCNCc2cc3cc(Br)ccc3nc2SCc2ccccc2)CC1 | NADH-driven proton pumping, ACMA quenching | inverted membrane vesicles | 32 µg/mL |  | inhibition | 87%
N=C(N)c1cccc(OCc2ccc(COc3cccc(C(=N)N)c3)cc2)c1 |  | ATCC 17978 | concentration not given, added: rifampicin |  | MIC in combination | 25 µg/mL

Some of these lines once more:
Compound | assay | test system | conditions | how to read | measurement | value
Cc1c(CN(C)C(=O)/C=C/c2cnc3c(c2)CC(NC(=O)OC(C)(C)C)C(=O)N3)oc2ccccc12 (stereo not shown) | broth microdilution | AR-0311 |  |  | MIC | > 32 µg/mL
Brc1ccc2nc(SCc3ccccc3)c(CNCCC3CCN(C4CCCC4)CC3)cc2c1 | NADH-driven proton pumping, ACMA quenching | inverted membrane vesicles | 2 µg/mL |  | inhibition | 8%
